Measurements gathered from unrelated publications.
Protocols differ between the studies behind these lines. “And” joins repeats or separate records; there may be more than shown.
Target: Tyrosine-protein kinase Srms (SRMS, Homo sapiens, UniProt Q9H3Y6)

Cc1ccc(-c2c(/C=C(\C#N)C(=O)NC(C)C)n(CCCO)c3ncnc(N)c23)cc1 — remaining binding (cell-free assay, competition with immobilised ligand; 1 µM): 90%
Nc1ncc(-c2cc(-c3cnn(CC(F)(F)F)c3)ncc2F)nc1C(=O)NC1CNCC(F)C1 (centres unmarked) — remaining activity (enzyme activity; 1 µM; relative to: DMSO control): 102%
Cc1ccc(C(=O)Nc2ccc(CN3CCN(C)CC3)c(C(F)(F)F)c2)cc1C#Cc1cnc2cccnn12 — Hill slope (target engagement, NanoBRET; human cells): 1.64
CNC(=O)C1CCN(c2cc(C)c(F)cc2NC(=O)c2ccc(-c3cc(O)ccc3C)c(C)c2)CC1 — remaining binding (binding, competition with immobilised ligand; 1 µM): 78%
NC(=O)[C@@H](O)C[C@H]1CCc2sc3ncnc(O[C@H]4CC[C@H](N5CCOCC5)CC4)c3c21 — inhibition (enzyme activity, inhibitor; 10 µM): 17%
COc1cc(Nc2nccc(-c3cnn4nc(OC)ccc34)n2)cc(C(F)(F)F)c1 — remaining binding (binding, competition with immobilised ligand; 1 µM): 100%
C=CC(=O)Nc1cccc(-c2cnc3[nH]cc(C(=O)NC(C)(C)C)c3n2)c1 — inhibition (kinase activity; 0.1 µM): -2% and -3%
CCN1CCN(Cc2ccc(C(=O)Nc3ccc(C)c(NCc4cnc5[nH]ccc5c4OC)c3)cc2C(F)(F)F)CC1 — remaining binding (binding, competition with immobilised ligand; 1 µM): 30%
Nc1ncc2c(n1)-c1c([nH]c3ccc(C4=CCOCC4)cc13)CCC2 — remaining binding (binding, competition with immobilised ligand; 1 µM): 92%
Cc1cccc(O[C@H]2CCC[C@@H](C(C)CNCc3ccncc3)C2)c1 (relative stereo) — inhibition (enzyme activity, inhibitor; 1 µM): -3%
CCN1CCN(Cc2ccc(NC(=O)c3ccc(C)c(NC(=O)c4cncc(-c5cccs5)c4)c3)cc2C(F)(F)F)CC1 — remaining binding (binding, competition with immobilised ligand; 1 µM): 14%
COc1c(Cl)cccc1Nc1c(-c2ccncc2C#C[C@@]2(C)CCCN2C(=O)/C=C/CN(C)C)[nH]c2c1C(=O)NCC2 — remaining binding (cell-free assay, competition with immobilised ligand; 3 µM): 60%
CN1CC[C@@H](COc2cnc(C#N)cc2-c2ccn3nc(NC(=O)C4CC4)cc3c2)C1 — inhibition (enzyme activity, inhibitor; 1 µM): -3%
C=CC(=O)N1Cc2nc(-c3cc(-c4cc(Cl)cnc4Cl)c(F)cc3F)n(-c3ccncn3)c2C1 — inhibition (cell-free assay, inhibitor; 1 µM): 6.7%

For quick reference, copied from above:
CN1CC[C@@H](COc2cnc(C#N)cc2-c2ccn3nc(NC(=O)C4CC4)cc3c2)C1 — inhibition (enzyme activity, inhibitor; 1 µM): -3%
C=CC(=O)N1Cc2nc(-c3cc(-c4cc(Cl)cnc4Cl)c(F)cc3F)n(-c3ccncn3)c2C1 — inhibition (cell-free assay, inhibitor; 1 µM): 6.7%
